Results from different studies.
Each line is one published result; not all experiments were run side by side. ± marks the error that the study gave.
CPL: CPL (Toxoplasma gondii, UniProt Q6DMN0)
Aminopeptidase N: Aminopeptidase N (Neisseria meningitidis, UniProt Q9JYV4)

The selectivity ratio of `N#Cc1nc(N2CCOCC2)nc(N(CCC2CCNCC2)Cc2ccc(F)cc2)n1` is reported as 2.9 (CPL; enzyme activity, inhibitor; baseline: human over Toxoplasma IC50).
`NC(=O)Cc1cc(=O)oc2cc(NC(=O)[C@@H](N)CCO)ccc12` has a Km of 79.2 ± 6.9 µM (Aminopeptidase N; enzyme activity, substrate; pH 7.5, 37 °C).
`CC1(C(=O)O)CCCC2(C)C1CCC1(C)c3cocc3CCC12` (stereo not shown): transcriptional activity “no effect” (Androgen receptor (AR, Homo sapiens, UniProt P10275); reporter gene, antagonist; CV-1 transfected with AR; 10 µM, 24 h, added: R1881 1 nM).
`CC(C)CCN(c1nc(C#N)nc(N2CCOCC2)n1)C(C)c1ccc(F)cc1` (stereo not shown) gave a selectivity ratio of 0.58 (CPL; enzyme activity, inhibitor; baseline: human over Toxoplasma IC50).
For `CC[C@H](C)[C@H](NC(=O)[C@H](C)NC(=O)[C@H](CCCNC(=N)N)NC(=O)[C@@H](NC(=O)[C@H](CCCCN)NC(=O)[C@H](CC(N)=O)NC(=O)[C@H](CCCNC(=N)N)NC(=O)[C@@H](NC(=O)[C@@H](NC(=O)[C@H](CCC(=O)O)NC(=O)[C@H](CCCCN)NC(=O)[C@H](CCCNC(=N)N)NC(=O)[C@H](C)NC(=S)Nc1ccc2c(c1)C(=O)OC21c2ccc(O)cc2Oc2cc(O)ccc21)[C@@H](C)CC)[C@@H](C)CC)[C@@H](C)CC)C(=O)NCC(=O)N[C@@H](CCCCN)C(=O)N[C@@H](CCSC)C(=O)N[C@@H](C)C(=O)N[C@@H](CCCNC(=N)N)C(=O)N[C@H](C(=O)N[C@@H](Cc1ccccc1)C(=O)N[C@@H](CO)C(=O)N[C@H](C(=O)N[C@@H](CC(C)C)C(=O)N[C@@H](CCCNC(=N)N)C(=O)O)C(C)C)C(C)C`, the Kd ratio was ~50 fold (Calmodulin, C-terminal domain (CAM, Paramecium tetraurelia, UniProt P07463); binding, fluorescence anisotropy; Paramecium; baseline: Ca2+-saturated over apo).
With `CC(=O)NC(Cc1ccc(Br)c(Cl)c1)C(=O)N[C@@H](C)C(=O)N1CCC[C@H]1C(=O)N1CCC[C@H]1C(=O)N[C@@H](CCC(=O)O)C(=O)N[C@@H](Cc1c[nH]cn1)C(=O)N[C@@H](CO)C(=O)N[C@H](C(=O)N[C@@H](C)C(N)=O)[C@@H](C)OP(=O)(O)O` (stereo partly shown) the inhibition was 0.42% (Serine/threonine-protein kinase BRSK2 (BRSK2, Homo sapiens, UniProt Q8IWQ3); enzyme activity, inhibitor; 10 µM).
`CCN(Cc1ccccc1)C(=O)CCc1nc(CN2CCN(C(=O)Cc3ccc(OC)c(OC)c3)CC2)no1` gave an activation V1/2 of -31.9 ± 0.9 mV (Potassium voltage-gated channel subfamily KQT member 4 (KCNQ4, Homo sapiens, UniProt P56696); potassium current, whole-cell patch clamp; CHO, stable; 1 µM).
The inhibition of `O=C(O)CCCC(=O)O` is reported as 51.1 ± 2.18% (Acetylcholinesterase (ACHE, Homo sapiens, UniProt P22303); enzyme activity, inhibitor; 125 µg/mL).
For `CC(C)(C)n1ccc(C(=O)N2CCN(c3nc4ccccc4s3)CC2)c1`, the kmax was 0.00029 s⁻¹ (hh, C-terminal autoprocessing domain (Drosophila melanogaster, UniProt Q02936); inhibitor; 25 µM).
`O=C(Nc1cccnn1)N1CCC(=Cc2cccc(Oc3ccc(C(F)(F)F)cn3)c2)CC1` has an ED50 of 2 µg/kg (Fatty-acid amide hydrolase 1 (Faah, Mus musculus, UniProt O08914); enzyme activity, inhibitor, ex vivo; mouse, liver; oral, 8 h).
`CCOC(=O)/C(C#N)=C/c1cccc(C(N)=O)c1` gave a binding enthalpy of -50.2 kJ/mol (Genome polyprotein, 3C protease (Human enterovirus D68, UniProt Q68T42, C1641Y/I1565V/I1594T/R1603K/Y1579H); ITC; enterovirus D68; concentration not given, 25 °C, added: DTT 10 mM).
For `CCCCCCCCNP(=O)(Nc1ccccc1)O[C@@H]1O[C@H](CO)[C@@H](O)[C@H](O)[C@H]1F` (stereo partly shown), “inactivation rate constant” read 0.1 min⁻¹ (Lysosomal acid glucosylceramidase (GBA1, Homo sapiens, UniProt P04062); enzyme activity, irreversible inhibitor; pH 5.5, 37 °C, added: 2,4-dinitrophenyl beta-D-glucopyranoside).
`NC(=O)Cc1cc(=O)oc2cc(NC(=O)[C@@H](N)CCc3ccccc3)ccc12` — result for “relative hydrolysis rate”: 38.5 to 74% (Aminopeptidase N; enzyme activity, substrate; 3 µM, pH 7.5, 37 °C; baseline: L-hArg-ACC).
`Nc1nc2c([C@@H]3O[C@@H]4COP(=O)(O)O[C@H]5[C@@H](O)[C@H](c6snc7c(=O)[nH]c(N)nc67)O[C@@H]5COP(=O)(O)O[C@H]4[C@H]3O)snc2c(=O)[nH]1` — result for “cleavage rate constant k2”: 0.83 ± 0.55 s⁻¹ (Cyclic di-GMP phosphodiesterase RocR (rocR, Pseudomonas aeruginosa, UniProt Q9HX69); substrate, HPLC; 10 µM, added: 100 nM enzyme).
`CC[C@H](C)[C@H](NC(=O)[C@H](CC(C)C)NC(=O)[C@H](CCC(=O)O)NC(=O)[C@H](CO)NC(=O)[C@@H](N)CC(N)=O)C(=O)N[C@@H](CC(N)=O)C(=O)N[C@@H](CO)C(=O)N[C@@H](CC(C)C)C(=O)N[C@@H](CC(C)C)C(=O)N[C@@H](CO)C(=O)N[C@@H](CC(C)C)C(=O)N1CCC[C@H]1C(=O)N[C@@H](CCCCN)C(=O)N[C@@H](CC(N)=O)C(=O)N[C@@H](CCSC)C(=O)N[C@@H](CC(N)=O)C(=O)N[C@@H](CC(=O)O)C(=O)N[C@@H](C)C(N)=O` has a response attenuation of 1.2 ± 9.7% (PDF receptor (Pdfr, Drosophila melanogaster, UniProt Q9W4Y2); cAMP level, agonist, Epac FRET; Drosophila, isolated brain s-LNv neurons; 1 µM, 180 s).
`CCOC(=O)c1cc(Cc2ccccc2)cc2c1NCCC2NC(=O)C(N)Cc1c(C)cc(O)cc1C` (stereo not shown) gave a Ke of 42.5 nM (Delta-type opioid receptor (Oprd1, Rattus norvegicus, UniProt P33533); GTPγS binding, antagonist; added: SNC80).
`CC(C)OC(=O)c1ccc(OC(=O)C2CCNCC2)cc1` has an inhibitory concentration of < 1 µM (ATP-dependent Clp protease proteolytic subunit (clpP, Staphylococcus aureus, UniProt Q2G036); enzyme activity, inhibitor).
With `CC(COC(=O)c1ccccc1)OC(=O)C(N)Cc1ccccc1` (mixture of isomers) the Vmax was 0.0025 mM/min (Serine hydrolase BPHL (BPHL, Homo sapiens, UniProt Q86WA6); hydrolysis, substrate).
Under “ΔG of binding”, `CC(C)P(=S)(NP(=S)(C(C)C)C(C)C)C(C)C` is recorded as -16.4 kJ/mol (Alpha-amylase (Bacillus subtilis, UniProt P00691); fluorescence quenching; concentration not given, pH 6.8, 298 K).
`O=C(O)/C=C/c1ccc(O)cc1` gave an inhibition of 72.6% (Cholinesterase (BCHE, Homo sapiens, UniProt P06276); enzyme activity, inhibitor, Ellman; 500 µg/mL).
`CC(C)C[C@H](NC(=O)[C@@H]1CCCN1C(=O)[C@H](CCCCN)NC(=O)C[C@@H]1O[C@@H](C)[C@@H](O)[C@@H](O)[C@@H]1O)C(=O)NCCCC[C@H](NC(=O)[C@H](CC(C)C)NC(=O)[C@@H]1CCCN1C(=O)[C@H](CCCCN)NC(=O)C[C@@H]1O[C@@H](C)[C@@H](O)[C@@H](O)[C@@H]1O)C(=O)N[C@@H](Cc1ccccc1)C(=O)N[C@@H](CS)C(N)=O`: “relative potency per fucoside” 1.3 (Fucose-binding lectin PA-IIL (lecB, Pseudomonas aeruginosa, UniProt Q9HYN5); binding, isothermal titration calorimetry; divided by fucoside copies; baseline: monovalent fucoside KD over ligand KD).
`CC(=O)NCC(=O)N[C@@H](CO)C(=O)N[C@@H](CCCCNP(=O)(O)O)C(=O)NCC(=O)NCC(N)=O` gave an initial velocity of 6.46e-09 M/s (Phospholysine phosphohistidine inorganic pyrophosphate phosphatase (LHPP, Homo sapiens, UniProt Q9H008); substrate; 100 µM, pH 7.8).
